Published values from different studies.
Each line is one published result; not all experiments were run side by side.
Route: oral

Structure (SMILES) = O=C(c1nc2n(n1)[C@H](c1ccccc1)C[C@@H]2F)C1CC1; host = human; medium = plasma; dose = 225 mg; setting = single dose, fasted, healthy volunteers; measurement = AUC(0-inf); result = 46800 ng·h/mL
Structure (SMILES) = CS(=O)(=O)n1cc2c(n1)CN([C@H]1CO[C@H](c3cc(F)ccc3F)[C@@H](N)C1)C2; host = male human; medium = plasma; dose = 100 mg; setting = single dose, fasted, healthy volunteers; measurement = AUC(0-t); result = 82.5 µM·h
Structure (SMILES) = CCOc1ccc(Cc2cc([C@@H]3S[C@H](CO)[C@@H](O)[C@H](O)[C@H]3O)c(OC)cc2C)cc1; host = human; medium = plasma; dose = 5 mg; setting = single dose, fasted, healthy volunteers; measurement = AUC(0-t); result = 1770 ng·h/mL
Structure (SMILES) = Nc1ccc(-c2nc([C@H]3CCc4cc(-c5cc(Cl)ccc5-n5cnnn5)cc(=O)n43)c(F)[nH]2)c(F)n1; host = human; medium = plasma; dose = 20 mg; setting = single dose, fasted; measurement = AUC(0-inf); result = 3410 ng·h/mL
Structure (SMILES) = CCCCCN1C[C@H](O)[C@@H](O)[C@H](O)[C@@H]1CO; host = human; medium = plasma; dose = 30 mg; setting = single dose, fasted, healthy volunteers; measurement = AUC(0-t); result = 1070 ng·h/mL
Structure (SMILES) = O=C(NCCN1CCCC1)c1cc(-c2ccc(CN3CCOCC3)cc2)nc2ccc(F)cc12; host = human; medium = blood; dose = 400 mg; setting = single dose, whole blood; measurement = AUC(0-t); result = 5830 ng·h/mL
Structure (SMILES) = CS(=O)(=O)n1cc2c(n1)CN([C@H]1CO[C@H](c3cc(F)ccc3F)[C@@H](N)C1)C2; host = male human; medium = plasma; dose = 100 mg; setting = single dose, fasted; measurement = AUC(0-inf); result = 98.9 µM·h
Structure (SMILES) = CCn1c(C(=O)c2cc(C)cc(C#N)c2)c(C(C)C)c(=O)[nH]c1=O; host = human; medium = plasma; dose = 600 mg; setting = multiple doses, once daily, steady state, healthy volunteers; measurement = AUC; result = 10200 ng·h/mL
Structure (SMILES) = CC(C)(Sc1ccncc1-c1ccc(C#N)c2ccccc12)C(=O)O; host = male human; medium = plasma; dose = 10 mg; setting = single dose, fasted; measurement = AUC(0-inf); result = 119 ng·h/mL
Structure (SMILES) = C[C@@H]1CCC[C@H](n2cnc(-c3cc(Cl)ccc3-n3cc(Cl)nn3)cc2=O)c2cc(ccn2)-c2c(cnn2C(F)F)NC1=O; host = human; medium = plasma; dose = 300 mg; setting = single dose, fasted, healthy volunteers; measurement = AUC(0-inf); result = 15000 ng·h/mL
Structure (SMILES) = COc1cccc(-c2ccc(NC(=O)C3=C(C(=O)O)CCC3)c(F)c2)c1; host = male human; medium = plasma; dose = 10 mg; setting = single dose, fasted, healthy volunteers; measurement = AUC(0-inf); result = 41000 ng·h/mL

Repeated from above:
Structure (SMILES) = CCn1c(C(=O)c2cc(C)cc(C#N)c2)c(C(C)C)c(=O)[nH]c1=O; host = human; medium = plasma; dose = 600 mg; setting = multiple doses, once daily, steady state, healthy volunteers; measurement = AUC; result = 10200 ng·h/mL
